Measured values collected from several papers.
Parts stem from different laboratories: compare values within a part only.

Block 1 — method: DNA-protein interaction ELISA; form: double-stranded DNA, one strand shown; matrix: in vitro, bacterial lysate; concentration: not given; notes: whole dsDNA probe, crude lysate protein; baseline: highest signal in screen; reading: higher = stronger binding
Target: Probable WRKY transcription factor 33, N-terminal DNA-binding domain (WRKY33, Arabidopsis thaliana, UniProt Q8S8P5, residues 169-264)
Construct (chain): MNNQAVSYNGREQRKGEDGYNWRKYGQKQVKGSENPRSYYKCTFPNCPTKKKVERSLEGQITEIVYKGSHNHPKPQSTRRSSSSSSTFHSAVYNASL
Sequence | relative absorbance
AAAAAATGGTTTCAATTTTCCGTCCGAAAA | 26.5 % of maximum
AAAAAAATGATTGCCAATGCTCGCAAAAAA | 15.9 % of maximum
AAAAAAGGCCTTCGCTCGTGTTTACGAAAA | 23.1 % of maximum
AAAAAACCGAGTGTTGCCAGTTGCAGAAAA | 25.4 % of maximum
AAAAAATGGGGCTCTGGCCCACCGTAAAAA | 19.7 % of maximum
AAAAAAGCGGTAGATGCGCAACTGTGAAAA | 19.4 % of maximum
AAAAAAGGGTTTGTCGGGAATTGCCGAAAA | 20.3 % of maximum

Block 2 — method: universal PBM; form: double-stranded DNA, one strand shown; matrix: in vitro; concentration: not given; reading: higher = stronger binding
Target: Sal-like protein 4, full length isoform B (SALL4, Homo sapiens, UniProt Q9UJQ4-2, residues 1-616)
Notes: 8-mer, flanks averaged, mean of replicates
Sequence | E-score
AACACTCC | -0.00271
CTGAAAGC | -0.114
GCTGGGAA | -0.181
ACTTTTAA | 0.233
ACCTTCGT | -0.0344
CACGGGTC | -0.296
GGTAACAC | -0.0445
AAGGTATC | -0.0133

Block 3 — method: protein binding microarray; form: double-stranded DNA, one strand shown; matrix: in vitro; concentration: not given; baseline: not given; reading: higher = stronger binding
Target: Histone acetyltransferase KAT6A, both winged helices, GST fusion (KAT6A, Homo sapiens, UniProt Q92794, residues 1-181)
Notes: 8-mer, flanks averaged, mean of 2 arrays, mostly near background
Target sequence (chain): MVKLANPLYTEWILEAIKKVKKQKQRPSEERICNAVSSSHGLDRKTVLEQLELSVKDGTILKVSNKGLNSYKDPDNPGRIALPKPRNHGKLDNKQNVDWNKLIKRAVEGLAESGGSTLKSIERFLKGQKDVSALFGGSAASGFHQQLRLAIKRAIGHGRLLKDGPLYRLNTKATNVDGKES
Sequence | E-score
AGTGCTAC | -0.196
GACCACAC | -0.183
GAGCTCGC | 0.0921
AGAGATAA | -0.159
AACGAGTT | -0.0989
ATAAGGAG | -0.0412
AGGAAGCA | -0.222
ATAGGGCC | -0.125
ACCCTAAC | -0.138
GGGATGCA | -0.0864

Further values, each from its own experiment
Substance | target | assay | system | setting | how to read | quantity | result
PhoQ, residues 284 288 289 292 302 303 GANMMA | PhoP, residues 12 14 15 18 19 MHTVL (Escherichia coli, UniProt P23836) | Sort-seq, item: YFP reporter | E. coli | PhoQ-PhoP variant library, together with: 10 µM Mg2+ | baseline: high Mg2+ state, higher = stronger signaling | fold induction | 14.2

A few entries again (block 3):
Sequence | E-score
GACCACAC | -0.183
GAGCTCGC | 0.0921
AGAGATAA | -0.159
